# Published values from different studies.
# Parts stem from different laboratories: compare values within a part only. Substitutions count along the parent as printed.

# Series 1
# Target: TAR DNA-binding protein 43, full length, His tag (TARDBP, Homo sapiens, UniProt Q13148, residues 1-414)
# Method: RNA Bind-n-Seq
# Form: RNA
# Medium: in vitro
# Tested at: 20 nM
# Notes: 6-mer, flanks averaged, single round
# With: 150 mM KCl
# Baseline: input library
# Reading: higher = stronger binding
Strand,6-mer enrichment (R)
CGUAGC,0.773
CGUAUA,0.627
CUAAGA,0.665

# Series 2
# Target: Histone acetyltransferase KAT6A, winged helix 2, GST fusion (KAT6A, Homo sapiens, UniProt Q92794, residues 85-181)
# Method: protein binding microarray
# Form: double-stranded DNA, one strand shown
# Medium: in vitro
# Tested at: not given
# Notes: 8-mer, flanks averaged, mean of 2 arrays, mostly near background
# Baseline: not given
# Reading: higher = stronger binding
# Construct (chain): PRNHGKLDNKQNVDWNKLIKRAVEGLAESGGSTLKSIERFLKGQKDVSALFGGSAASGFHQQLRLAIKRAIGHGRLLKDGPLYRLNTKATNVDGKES
Strand,E-score
ATTGAATA,0.0941
AATCAATG,0.0102
TCGGAGCA,0.0484
AAGGGGAT,-0.106
ACACGCGA,0.0825
CAGTCGAC,0.166

# Series 3
# Target: ABI1, truncated, D143A, DHFR fusion (Arabidopsis thaliana)
# Method: DHFR PCA, deep sequencing
# Medium: yeast
# Notes: methotrexate growth selection, single substitutions
# With: (+)-ABA 0 µM
# Baseline: wild-type fitted maximum
# Reading: higher = stronger binding
# Starting sequence: PYL1, truncated, DHFR fusion (Arabidopsis thaliana); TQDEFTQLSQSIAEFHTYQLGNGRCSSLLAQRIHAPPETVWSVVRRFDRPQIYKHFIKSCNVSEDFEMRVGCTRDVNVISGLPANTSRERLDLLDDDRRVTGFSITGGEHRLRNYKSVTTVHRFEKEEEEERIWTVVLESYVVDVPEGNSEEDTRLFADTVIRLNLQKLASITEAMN; partner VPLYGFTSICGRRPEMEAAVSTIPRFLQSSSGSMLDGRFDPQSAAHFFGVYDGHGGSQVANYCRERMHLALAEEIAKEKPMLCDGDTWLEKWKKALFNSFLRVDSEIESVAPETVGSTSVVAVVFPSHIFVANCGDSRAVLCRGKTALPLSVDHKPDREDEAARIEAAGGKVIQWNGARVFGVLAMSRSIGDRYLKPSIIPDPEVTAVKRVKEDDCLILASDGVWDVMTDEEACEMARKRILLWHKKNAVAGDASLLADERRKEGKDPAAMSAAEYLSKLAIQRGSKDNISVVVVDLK
Variant,relative binding score
Q10R,16.6%
H55N,9.11%
V145E,-2.73%
L8V,1.73%

# Further values, each from its own experiment
Molecule,target,assay,test system,conditions,scale,endpoint,result
"PhoQ, residues 284 288 289 292 302 303 SSCLAV","PhoP, residues 12 14 15 18 19 QYCSL (Escherichia coli, UniProt P23836)","Sort-seq, refers to: YFP reporter",E. coli,"PhoQ-PhoP variant library, with: 10 µM Mg2+","baseline: high Mg2+ state, higher = stronger signaling",fold induction,15.6

# Some of these lines once more (series 3):
Variant,relative binding score
V145E,-2.73%
L8V,1.73%
